Assay results from different studies.
Each line is one published result; not all experiments were run side by side. Numbers after ± are the reported error.

| SMILES | assay | system | setting | how to read | endpoint | value |
| --- | --- | --- | --- | --- | --- | --- |
| CN1CC[C@]23c4c5ccc(O)c4O[C@H]2[C@@H](O)CC[C@H]3[C@H]1C5 | – | – | – | – | log tautomerization constant | 0 |
| COc1ccnc(C(=O)N[C@H]2COC(=O)[C@H](Cc3ccccc3)[C@@H](OC(=O)C(C)C)[C@H](C)OC2=O)c1OCOC(=O)C(C)C | – | – | pH 5, 20 °C | – | log Kow | 4.2 |
| CN1CCN(C(=O)Oc2cccc3c2[n+]([O-])c2cc4ccccc4cc2[n+]3[O-])CC1 | PAMPA | artificial membrane in PBS | 50 µM, 5 h | – | log effective permeability | -5.26 |
| CC[C@H](C)[C@H](NC(=O)[C@H](CO)NC(=O)[C@H](CCCNC(=N)N)NC(C)=O)C(=O)N[C@H]1CSSC[C@@H](C(=O)N[C@H](C(N)=O)[C@@H](C)O)NC(=O)[C@H](CCCNC(=N)N)NC(=O)[C@H](Cc2c[nH]cn2)NC(=O)[C@H](C)NC(=O)CNC(=O)[C@H](Cc2c[nH]c3ccccc23)NC(=O)[C@H](CC(=O)O)NC(=O)[C@H](CCC(N)=O)NC(=O)[C@H](Cc2cccc3ccccc23)NC(=O)[C@H](C(C)C)NC1=O | isocratic RP-HPLC | C18 column | pH 7.4, 25 °C, elution method 2 | higher = more lipophilic | log retention factor | 0.068 |
| COc1cccc2c1[n+]([O-])c1cccc(O)c1[n+]2[O-] | PAMPA | artificial membrane in PBS | 50 µM, 5 h | – | log effective permeability | -4.94 |
| c1cc2ccc3ccc4ccc5cccc6c(c1)c2c3c4c56 | – | fresh water | 12 (unit not given), 20 °C, S30-1 sampler, 30 µm | – | log K(PDMS-water) | 5.47 ± 0.1 |
| CNC(=O)Oc1cc(C)c(SC)c(C)c1 | SPME sorption isotherm | PBS | – | – | log Freundlich coefficient | 2.7 |
| c1ccc2cc3c(cc2c1)-c1cccc2cccc-3c12 | – | fresh water | 12 (unit not given), 20 °C, SSP sampler, 100 µm | – | log K(PDMS-water) | 5.17 ± 0.05 |
| O=C(Oc1cccc2c1[n+]([O-])c1cccc(O)c1[n+]2[O-])N1CCCC1 | PAMPA | artificial membrane in PBS | 50 µM, 5 h | – | log effective permeability | -4.74 |
| Clc1ccc(-c2ccc(Cl)c(Cl)c2)c(Cl)c1 | – | fresh water | 20 °C, SSP sampler, 100 µm | – | log K(PDMS-water) | 5.6 ± 0.02 |
| CC[C@H](C)[C@H](NC(C)=O)C(=O)N[C@H]1CSSC[C@@H](C(=O)N[C@H](C(N)=O)[C@@H](C)O)NC(=O)[C@H](CCCNC(=N)N)NC(=O)[C@H](Cc2c[nH]cn2)NC(=O)[C@H](Cc2cccc3ccccc23)NC(=O)CNC(=O)[C@H](Cc2c[nH]c3ccccc23)NC(=O)[C@H](CC(=O)O)NC(=O)[C@H](CCC(N)=O)NC(=O)[C@H](Cc2c[nH]c3ccccc23)NC(=O)[C@H](C(C)C)NC1=O | isocratic RP-HPLC, C18 | 32% acetonitrile, phosphate pH 7.4, 1% TFA | 25 °C | – | log retention factor | 0.699 |
| c1ccc2c(c1)-c1ccc3ccc4cccc5cc-2c1c3c45 | – | fresh water | 20 °C, SSP sampler, 100 µm | – | log K(PDMS-water) | 5.33 ± 0.11 |
| Cc1cccc(C)c1N(Cn1cccn1)C(=O)CCl | SPME sorption isotherm | PBS | – | – | log Freundlich coefficient | 1.72 |
| Clc1cc(Cl)cc(-c2cc(Cl)ccc2Cl)c1 | – | fresh water | 20 °C, S100 sampler, 100 µm | – | log K(PDMS-water) | 5.69 ± 0.04 |
| CC[C@H](C)[C@H](NC(=O)[C@H](CO)NC(=O)[C@H](CCCNC(=N)N)NC(C)=O)C(=O)N[C@H]1CSSC[C@@H](C(=O)N[C@H](C(N)=O)[C@@H](C)O)NC(=O)[C@H](CCCNC(=N)N)NC(=O)[C@H](Cc2c[nH]cn2)NC(=O)[C@H](C)NC(=O)CNC(=O)[C@H](Cc2c[nH]c3ccccc23)NC(=O)[C@H](CC(=O)O)NC(=O)[C@H](CCC(N)=O)NC(=O)[C@H](Cc2c[nH]c3ccccc23)NC(=O)[C@H](C(C)C)NC1=O | isocratic RP-HPLC, C18 | 32% acetonitrile, phosphate pH 7.4, 1% TFA | 25 °C | – | log retention factor | -0.306 |
| Cn1c(N)nc2c3cccnc3ccc21 | SPME sorption isotherm | PBS | – | – | log Freundlich coefficient | 1.06 |
| CN1CC[C@]23c4c5ccc(O)c4O[C@H]2[C@@H](O)C=C[C@@]3(O)[C@H]1C5 | – | – | – | – | log tautomerization constant | 0.41 |
| CC[C@H](C)[C@H](NC(=O)[C@H](CCCNC(=N)N)NC(=O)[C@H](CCC(=O)O)NC(C)=O)C(=O)N[C@H]1CSSC[C@@H](C(=O)N[C@H](C(N)=O)[C@@H](C)O)NC(=O)[C@H](CCCNC(=N)N)NC(=O)[C@H](Cc2c[nH]cn2)NC(=O)[C@H](Cc2cccc3ccccc23)NC(=O)CNC(=O)[C@H](Cc2c[nH]c3ccccc23)NC(=O)[C@H](CC(=O)O)NC(=O)[C@H](CCC(N)=O)NC(=O)[C@H](Cc2c[nH]c3ccccc23)NC(=O)[C@H](C(C)C)NC1=O | isocratic RP-HPLC | C18 column | pH 7.4, 25 °C, elution method 2 | higher = more lipophilic | log retention factor | 0.122 |
| Clc1ccc(-c2ccc(Cl)cc2Cl)cc1 | – | fresh water | 20 °C, S100 sampler, 100 µm | – | log K(PDMS-water) | 5.2 ± 0.04 |
| CC[C@H](C)[C@H](NC(C)=O)C(=O)N[C@H]1CSSC[C@@H](C(=O)N[C@H](C(N)=O)[C@@H](C)O)NC(=O)[C@H](CCCNC(=N)N)NC(=O)[C@H](Cc2c[nH]cn2)NC(=O)[C@@](C)(CC)NC(=O)CNC(=O)[C@H](Cc2c[nH]c3ccccc23)NC(=O)[C@H](CC(=O)O)NC(=O)[C@H](CCC(N)=O)NC(=O)[C@H](Cc2c[nH]c3ccccc23)NC(=O)[C@H](C(C)C)NC1=O | isocratic RP-HPLC | C18 column | pH 7.4, 25 °C, elution method 2 | higher = more lipophilic | log retention factor | 0.117 |
| CN1CC[C@]23c4c5ccc(O)c4O[C@H]2[C@@H](O)C=C[C@H]3[C@H]1C5 | – | – | phenolate site | – | log k protonation constant | 9.33 |
| CN1CCN(C(=O)Oc2cccc3c2[n+]([O-])c2cccc(O)c2[n+]3[O-])CC1 | PAMPA | artificial membrane in PBS | 50 µM, 5 h | – | log effective permeability | -5.96 |
| CC[C@H](C)[C@H](NC(=O)[C@H](CCCNC(=N)N)NC(=O)[C@H](CCC(=O)O)NC(C)=O)C(=O)N[C@H]1CSSC[C@@H](C(=O)N[C@H](C(N)=O)[C@@H](C)O)NC(=O)[C@H](CCCNC(=N)N)NC(=O)[C@H](Cc2c[nH]cn2)NC(=O)[C@H](Cc2cccc3ccccc23)NC(=O)CNC(=O)[C@H](Cc2c[nH]c3ccccc23)NC(=O)[C@H](CC(=O)O)NC(=O)[C@H](CCC(N)=O)NC(=O)[C@H](Cc2cccc3ccccc23)NC(=O)[C@H](C(C)C)NC1=O | isocratic RP-HPLC | C18 column | pH 7.4, 25 °C, elution method 2 | higher = more lipophilic | log retention factor | 0.514 |
| Clc1cc(Cl)c(-c2c(Cl)cc(Cl)cc2Cl)c(Cl)c1 | – | fresh water | 20 °C, S100 sampler, 100 µm | – | log K(PDMS-water) | 6.56 ± 0.06 |
| CC[C@H](C)[C@H](NC(C)=O)C(=O)N[C@H]1CSSC[C@@H](C(=O)N[C@H](C(N)=O)[C@@H](C)O)NC(=O)[C@H](CCCNC(=N)N)NC(=O)[C@H](Cc2c[nH]cn2)NC(=O)[C@H](C)NC(=O)CNC(=O)[C@H](Cc2c[nH]c3ccccc23)NC(=O)[C@H](CC(=O)O)NC(=O)[C@H](CCC(N)=O)NC(=O)[C@H](Cc2cn(C)c3ccccc23)NC(=O)[C@H](C(C)C)NC1=O | isocratic RP-HPLC, C18 | 32% acetonitrile, phosphate pH 7.4, 1% TFA | 25 °C | – | log retention factor | 0.263 |
| c1cc2ccc3cccc4ccc(c1)c2c34 | – | fresh water | 12 (unit not given), 20 °C | – | log K(PDMS-water) | 4.3 ± 0.03 |
| CC(=O)N[C@@H](CC(N)=O)C(=O)N[C@@H](CC(N)=O)C(=O)N[C@@H](CC(C)C)C(=O)N[C@H]1CSSC[C@@H](C(=O)N[C@H](C(N)=O)[C@@H](C)O)NC(=O)[C@H](CCCNC(=N)N)NC(=O)[C@H](Cc2c[nH]cn2)NC(=O)[C@H](Cc2cccc3ccccc23)NC(=O)CNC(=O)[C@H](Cc2c[nH]c3ccccc23)NC(=O)[C@H](CC(=O)O)NC(=O)[C@H](CCC(N)=O)NC(=O)[C@H](Cc2cccc3ccccc23)NC(=O)[C@H](C(C)C)NC1=O | isocratic RP-HPLC, C18 | 32% acetonitrile, phosphate pH 7.4, 1% TFA | 25 °C | – | log retention factor | 0.771 |
| CN1CC[C@]23c4c5ccc(O)c4O[C@H]2[C@@H](O)CC[C@@]3(O)[C@H]1C5 | – | – | – | – | log tautomerization constant | 0.65 |

Some of these lines once more:
| SMILES | assay | system | setting | how to read | endpoint | value |
| --- | --- | --- | --- | --- | --- | --- |
| CC[C@H](C)[C@H](NC(C)=O)C(=O)N[C@H]1CSSC[C@@H](C(=O)N[C@H](C(N)=O)[C@@H](C)O)NC(=O)[C@H](CCCNC(=N)N)NC(=O)[C@H](Cc2c[nH]cn2)NC(=O)[C@H](C)NC(=O)CNC(=O)[C@H](Cc2c[nH]c3ccccc23)NC(=O)[C@H](CC(=O)O)NC(=O)[C@H](CCC(N)=O)NC(=O)[C@H](Cc2cn(C)c3ccccc23)NC(=O)[C@H](C(C)C)NC1=O | isocratic RP-HPLC, C18 | 32% acetonitrile, phosphate pH 7.4, 1% TFA | 25 °C | – | log retention factor | 0.263 |
| Clc1cc(Cl)cc(-c2cc(Cl)ccc2Cl)c1 | – | fresh water | 20 °C, S100 sampler, 100 µm | – | log K(PDMS-water) | 5.69 ± 0.04 |
| Clc1cc(Cl)c(-c2c(Cl)cc(Cl)cc2Cl)c(Cl)c1 | – | fresh water | 20 °C, S100 sampler, 100 µm | – | log K(PDMS-water) | 6.56 ± 0.06 |
| CN1CC[C@]23c4c5ccc(O)c4O[C@H]2[C@@H](O)C=C[C@H]3[C@H]1C5 | – | – | phenolate site | – | log k protonation constant | 9.33 |
